Experimental data pooled from the literature.
Compare with care: the assays were run in different laboratories. Several values in a cell are separate wells, animals, samples, runs or records. Numbers after ± are the reported error. Values after ≈ are worked out from the molar mass of the structure shown.
Sequence of UniProt Q80W57 (whole entry, looked up): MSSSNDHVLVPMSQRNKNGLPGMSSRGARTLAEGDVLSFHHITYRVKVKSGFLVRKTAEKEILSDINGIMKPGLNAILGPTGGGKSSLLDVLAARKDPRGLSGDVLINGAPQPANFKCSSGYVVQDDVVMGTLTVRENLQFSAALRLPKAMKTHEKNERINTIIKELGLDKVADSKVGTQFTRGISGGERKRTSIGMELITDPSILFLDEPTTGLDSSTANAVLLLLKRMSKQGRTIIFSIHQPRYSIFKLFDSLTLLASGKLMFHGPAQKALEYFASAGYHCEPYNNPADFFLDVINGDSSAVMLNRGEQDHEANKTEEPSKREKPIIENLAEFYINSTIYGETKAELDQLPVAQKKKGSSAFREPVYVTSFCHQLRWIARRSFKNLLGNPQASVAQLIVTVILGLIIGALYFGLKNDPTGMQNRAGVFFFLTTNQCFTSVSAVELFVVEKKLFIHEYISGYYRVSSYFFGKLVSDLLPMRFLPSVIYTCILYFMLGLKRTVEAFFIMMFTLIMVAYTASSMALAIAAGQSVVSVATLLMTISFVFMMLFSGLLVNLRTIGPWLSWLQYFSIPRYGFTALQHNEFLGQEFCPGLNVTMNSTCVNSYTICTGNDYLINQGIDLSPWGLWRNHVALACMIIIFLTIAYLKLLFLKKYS

CN1CC[C@@H](NC(=O)Nc2ccc(C#N)cc2)C[C@@H]1c1nc2ccccc2[nH]1 — average plasma concentration (Japanese patients, plasma; oral, 100 mg once daily, cycle 1 day 21, steady state, geometric mean): 646 ng/mL
CCn1c(C(=O)c2cc(C)cc(C#N)c2)c(C(C)C)c(=O)[nH]c1=O — Cmax at steady state (healthy humans, plasma; oral, 600 mg once daily, 7 days): 1100 ± 489 ng/mL
C[C@](N)(Cc1ccc(O)c(O)c1)C(=O)O — solubility (supercritical carbon dioxide; 5 h, 313 K, 24 MPa, density 873.9 kg/m3): 231 µg/mL (≈ 1100 µM)
CCCC[C@H](NC(C)=O)C(=O)N[C@H]1CCC(=O)NC[C@@H](C(=O)N[C@@H](Cc2c[nH]c3ccccc23)C(N)=O)NC(=O)[C@H](CCCNC(=N)N)NC(=O)[C@@H](Cc2ccccc2)NC(=O)[C@H](Cc2c[nH]cn2)NC1=O — CL/F (female rat, plasma; subcutaneous, 5 mg/kg/day, multiple doses, once daily): 19.4 mL/min/kg
COc1ccc(-n2nc(C(N)=O)c3c2C(=O)N(c2ccc(N4CCCCC4=O)cc2)CC3)cc1 — AUC(tau) (healthy Chinese subjects; oral, 10 mg twice daily, day 9): 2700 ng·h/mL
O=C(O)c1cc(/N=N/c2ccc(S(=O)(=O)Nc3ccccn3)cc2)ccc1O — AUC(0-t) (Broad substrate specificity ATP-binding cassette transporter ABCG2 (Abcg2, Rattus norvegicus, UniProt Q80W57); substrate; male Sprague-Dawley rat, plasma; oral, 2 mg/kg): 183 ± 84 ng·h/mL
CC[C@H](C)[C@@H]1NC(=O)[C@H](Cc2ccc(O)cc2)NC(=O)[C@@H](N)CSSC[C@@H](C(=O)N2CCC[C@H]2C(=O)N[C@@H](CC(C)C)C(=O)NCC(N)=O)NC(=O)[C@H](CC(N)=O)NC(=O)[C@H](CCC(N)=O)NC1=O — Cmax (ELISA; knock-out male mice lacking compound, plasma; intraperitoneal, 12 µg total): 255 ± 44 pg/sample
CC[C@H](C)[C@H](NC(=O)[C@H](Cc1ccccc1)NC(=O)[C@H](CCC(=O)O)NC(=O)[C@H](CCCCNC(=O)COCCOCCNC(=O)COCCOCCNC(=O)CC[C@H](NC(=O)CCCCCCCCCCCCCCCCC(=O)O)C(=O)O)NC(=O)[C@H](C)NC(=O)[C@H](C)NC(=O)[C@H](CCC(N)=O)NC(=O)CNC(=O)[C@H](CCC(=O)O)NC(=O)[C@H](CC(C)C)NC(=O)[C@H](Cc1ccc(O)cc1)NC(=O)[C@H](CO)NC(=O)[C@H](CO)NC(=O)[C@@H](NC(=O)[C@H](CC(=O)O)NC(=O)[C@H](CO)NC(=O)[C@@H](NC(=O)[C@H](Cc1ccccc1)NC(=O)[C@@H](NC(=O)CNC(=O)[C@H](CCC(=O)O)NC(=O)C(C)(C)NC(=O)[C@@H](N)Cc1cnc[nH]1)[C@@H](C)O)[C@@H](C)O)C(C)C)C(=O)N[C@@H](C)C(=O)N[C@@H](Cc1c[nH]c2ccccc12)C(=O)N[C@@H](CC(C)C)C(=O)N[C@H](C(=O)N[C@@H](CCCNC(=N)N)C(=O)NCC(=O)N[C@@H](CCCNC(=N)N)C(=O)NCC(=O)O)C(C)C — average steady-state concentration (healthy Chinese subjects, plasma; subcutaneous, 0.5 mg once weekly): 23.8 nmol/L
des-acyl ghrelin (human) — parenchyma/serum ratio (capillary depletion; mouse, brain parenchyma; intravenous, 10 min): 10.4 ± 1.95 µL/g
NC(=O)N1c2ccccc2C=Cc2ccccc21 — thermodynamic solubility (shake-flask; Captex 355; 37 °C): 2.56 ± 0.12 mg/g
OCc1ccccc1 — IC50 (cysteine peptide Ac-RFAACAA-COOH; peptide depletion, DPRA RapidFire-MS/MS; 24 h, pH 7.5, room temperature, with: 5.0 µM cysteine peptide): inactive
CNc1nc(Nc2ccc(-n3cnc(C)n3)c(OC)c2)nc2c1CC[C@H]2c1ccc(F)cc1 — Tmax (human, plasma; oral, 30 mg, single dose, healthy volunteers): 4 h
COC1=CC(=O)C[C@@H](C)[C@]12Oc1c(Cl)c(OC)cc(OC)c1C2=O — thermodynamic solubility (shake-flask; PEG400; 37 °C): 13.5 ± 0.6 mg/g
C[C@H]1CO[C@@H]2Cn3cc(C(=O)NCc4ccc(F)cc4F)c(=O)c(O)c3C(=O)N12 — tissue/plasma ratio (HIV-infected adults, CSF and plasma; intramuscular, dose not given, total, median, every 4 or 8 weeks; relative to: CSF over plasma): 0.003 to 0.0034
COc1cc(OC)c(/C=C/S(=O)(=O)Cc2ccc(OC)c(NCC(=O)O)c2)c(OC)c1 — AUC(0-inf) (cancer patients, phase I, plasma; oral, 700 mg twice daily, day 1 cycle 1): 19600 ± 23000 ng·h/mL
CC[C@H](C)[C@H](NC(=O)[C@H](CC(C)C)NC(=O)[C@H](Cc1c[nH]c2ccccc12)NC(=O)[C@H](C)NC(=O)[C@@H](NC(=O)[C@H](Cc1ccccc1)NC(=O)[C@H](CC(=O)O)NC(=O)[C@H](CCCNC(=N)N)NC(=O)[C@H](C)NC(=O)[C@H](C)NC(=O)[C@H](CC(C)C)NC(=O)[C@H](C)NC(=O)[C@H](CC(=O)O)NC(=O)[C@H](CC(C)C)NC(=O)[C@@H](NC(=O)[C@@H](NC(=O)[C@H](C)NC(=O)[C@H](CC(C)C)NC(=O)[C@H](CCC(=O)O)NC(=O)[C@H](CO)NC(=O)[C@H](CO)NC(=O)[C@H](Cc1ccccc1)NC(=O)[C@@H](NC(=O)CNC(=O)[C@H](CCC(=O)O)NC(=O)CNC(=O)[C@@H](N)Cc1cnc[nH]1)[C@@H](C)O)[C@@H](C)O)[C@@H](C)CC)[C@@H](C)CC)C(=O)N[C@@H](C)C(=O)N[C@H](C(=O)N[C@@H](CCCCN)C(=O)N[C@H](C(=O)N[C@H](C(=O)N[C@@H](CC(=O)O)C(=O)N[C@@H](CCCCN)C(=O)N[C@@H](CCCCN)C(=O)N[C@@H](CCCCN)C(=O)N[C@@H](CCCCN)C(=O)N[C@@H](CCCCN)C(=O)N[C@@H](CCCCN)C(N)=O)[C@@H](C)O)[C@@H](C)CC)[C@@H](C)O — AUClast (immunoaffinity LC-MS/MS; healthy human subjects, plasma; subcutaneous, 5 mg once weekly, day 36 after 6 doses, steady state, geometric mean): 516 pmol·h/L
Oc1ccc2c3c(cnc2c1)-c1ccc(C(F)(F)F)cc1O[C@@H]3c1ccc(OCCN2CC(CF)C2)cc1 — AUC0‐∞ of total radioactivity (healthy postmenopausal women, plasma; oral solution, 400 mg [14C]-labelled, single dose, fasted; arithmetic mean): 18900 ng·h eq/mL
CCCOC(=O)c1ccc(O)cc1 — peptide depletion (cysteine peptide Ac-RFAACAA-COOH; DPRA RapidFire-MS/MS; 24 h, pH 7.5, with: 5.0 µM cysteine peptide): inactive
CC(C)NC(=O)COc1cccc(-c2nc(Nc3ccc4[nH]ncc4c3)c3ccccc3n2)c1 — AUC(0-inf) (male C57BL/6 mouse, brain; oral, 100 mg/kg): 2050 ng·h/mL
RLQLKL — peptide cleavage (substrate, gel electrophoresis; peptide, mouse, PyMT tumour, PyMT tumour tissue extract; 5 µM, 16 h, 37 °C, 2% extract, 1 mM ZnCl2): > 80% and > 90%
C/C=C(\C)C(=O)NCC(=O)O — total plasma concentration ratio (human hemodialysis patients, plasma; pre-treatment; relative to: hemodialysis over normal subjects): 27
CC(C)(CC(=O)N1CCCC1)NCC(=O)N1C[C@@H](F)C[C@H]1C#N — AUC(0-inf) at steady state (Chinese type 2 diabetes patients, plasma; oral, 50 mg once daily, multiple doses): 782 ng·h/mL

Some of these lines once more:
CN1CC[C@@H](NC(=O)Nc2ccc(C#N)cc2)C[C@@H]1c1nc2ccccc2[nH]1 — average plasma concentration (Japanese patients, plasma; oral, 100 mg once daily, cycle 1 day 21, steady state, geometric mean): 646 ng/mL
CC(C)(CC(=O)N1CCCC1)NCC(=O)N1C[C@@H](F)C[C@H]1C#N — AUC(0-inf) at steady state (Chinese type 2 diabetes patients, plasma; oral, 50 mg once daily, multiple doses): 782 ng·h/mL
